Measurements gathered from unrelated publications.
A part holds a random share of what one study measured. Positions count from the first letter of the parent shown.

Series 1 — technique: DHFR PCA, deep sequencing; sample: yeast; added: (+)-ABA 17 µM; reference: wild-type fitted maximum; direction: higher = stronger binding; endpoint: relative binding score
Target: ABI1, truncated, D143A, DHFR fusion (Arabidopsis thaliana)
Notes: methotrexate growth selection, single substitutions
Starting sequence: PYL1, truncated, DHFR fusion (Arabidopsis thaliana); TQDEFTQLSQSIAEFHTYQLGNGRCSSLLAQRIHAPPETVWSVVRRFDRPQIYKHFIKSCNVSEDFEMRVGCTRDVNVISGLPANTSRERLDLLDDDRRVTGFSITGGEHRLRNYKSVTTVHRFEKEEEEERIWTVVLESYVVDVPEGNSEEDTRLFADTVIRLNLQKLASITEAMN
D92M: 28.1%
T17N: 60.8%
S117M: 24.3%
F56A: -3.02%
G81T: 16.4%
L82G: 21.5%
Y115D: -2.81%
V142N: 47.3%

Series 2 — technique: RNAcompete; molecule type: RNA; sample: in vitro; concentration: 20 nM; notes: 7-mer, probes averaged, single round; reference: mean of 7-mers; direction: higher = stronger binding; endpoint: 7-mer Z-score
Target: PABPC1L2, full length, GST fusion (mouse, UniProt A0ABA7IW68)
Target sequence (chain): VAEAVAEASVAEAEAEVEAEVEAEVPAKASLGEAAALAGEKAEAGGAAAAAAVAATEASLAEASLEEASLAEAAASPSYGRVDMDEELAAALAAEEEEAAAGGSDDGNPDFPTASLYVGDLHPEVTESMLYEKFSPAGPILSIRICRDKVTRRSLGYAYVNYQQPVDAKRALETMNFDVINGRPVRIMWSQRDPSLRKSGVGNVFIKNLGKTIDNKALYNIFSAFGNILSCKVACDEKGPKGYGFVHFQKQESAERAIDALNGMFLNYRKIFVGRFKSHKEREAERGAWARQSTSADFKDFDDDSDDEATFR
UCUAACA: -0.177
GUUCUUU: -0.248
GCGGACA: 0.222
UAGUGAC: -0.222
CGGAUAU: -0.142
GGUUUAC: -0.273
ACGAGGA: 0.0968
UUUCGUA: -0.331

Single results of other studies — HMGB2: HMGB2 (Homo sapiens, UniProt P26583)
P1: viral docking peptide; KGVKRKLFAEDSS; partner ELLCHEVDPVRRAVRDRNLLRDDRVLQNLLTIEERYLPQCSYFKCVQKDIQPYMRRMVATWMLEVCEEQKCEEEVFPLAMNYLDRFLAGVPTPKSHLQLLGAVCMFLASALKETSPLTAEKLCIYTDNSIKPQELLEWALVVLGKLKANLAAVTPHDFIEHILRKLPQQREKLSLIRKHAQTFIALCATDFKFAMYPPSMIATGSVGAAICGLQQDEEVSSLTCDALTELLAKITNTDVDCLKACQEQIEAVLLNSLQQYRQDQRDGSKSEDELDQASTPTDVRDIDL
HMGB1 (Homo sapiens, UniProt P09429)  interaction screen (HMGB2; cross-linking MS; hits only): cross-linked
P1 G2R  normalised enrichment score (CCND2, cyclin fold, Cln2 fusion (human); yeast growth competition, sequencing; yeast; weak parent motif; reference: not given, higher = stronger binding): -0.0201
HMGB3 (Homo sapiens, UniProt O15347)  interaction screen (HMGB2; cross-linking MS; hits only): cross-linked
PhoQ, residues 284 288 289 292 302 303 SSCCRF  fold induction (PhoP, residues 12 14 15 18 19 NIMAP (Escherichia coli, UniProt P23836); Sort-seq, refers to: YFP reporter; E. coli; PhoQ-PhoP variant library, added: 10 µM Mg2+; reference: high Mg2+ state, higher = stronger signaling): 0.604

Some of these lines once more (series 2):
UCUAACA: -0.177
UUUCGUA: -0.331
